Measured values pooled from the literature.
Each numbered part is a random draw from the data of one study; scales do not carry over between parts. Several values in a cell are separate wells, animals, samples, runs or records.

Study 1 — cell line: HEK-293T; effect on: pseudovirus infection; organism: VSV pseudotyped with SARS-CoV-2 spike; concentration: 10 µM; time: 16 h; relative to: vehicle-treated
Compound | GFP-positive cells [%]
CCOC(=O)C1=C[C@@H](OC(CC)CC)[C@H](NC(C)=O)[C@@H](N)C1 | 99.5
CC(=O)OCC(=O)[C@H]1CC[C@H]2[C@@H]3CCC4=CC(=O)CC[C@]4(C)[C@H]3CC[C@]12C | 87.4
C/C(O)=C(\C#N)C(=O)Nc1ccc(C(F)(F)F)cc1 | 40.9
O=c1[nH]cnc2c1ncn2[C@H]1CC[C@@H](CO)O1 | 71.3

Study 2 — technique: RNA Bind-n-Seq; molecule type: RNA; medium: in vitro; concentration: 1 µM; setting: whole 134-nt RNA, ends assumed; together with: 150 mM KCl; relative to: input library; direction: higher = stronger binding
Target: Ras GTPase-activating protein-binding protein 1, RRM domain (G3BP1, Homo sapiens, UniProt Q13283)
Chain of UniProt Q13283 (whole entry, looked up): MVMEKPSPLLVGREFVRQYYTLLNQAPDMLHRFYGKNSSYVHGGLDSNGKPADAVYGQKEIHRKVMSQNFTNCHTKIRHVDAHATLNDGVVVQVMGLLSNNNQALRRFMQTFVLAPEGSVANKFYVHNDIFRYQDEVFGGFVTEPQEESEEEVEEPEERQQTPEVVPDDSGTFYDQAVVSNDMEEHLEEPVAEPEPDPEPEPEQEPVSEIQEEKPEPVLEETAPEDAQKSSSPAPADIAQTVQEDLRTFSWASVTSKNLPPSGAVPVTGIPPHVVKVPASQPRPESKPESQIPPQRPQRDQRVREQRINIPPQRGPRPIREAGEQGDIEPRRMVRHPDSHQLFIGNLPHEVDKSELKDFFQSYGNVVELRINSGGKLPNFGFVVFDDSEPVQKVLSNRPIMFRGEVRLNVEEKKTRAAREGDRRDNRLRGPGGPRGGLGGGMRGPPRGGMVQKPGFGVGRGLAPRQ
Constant ends, left off below: GGGAGUUCUACAGUCCGACGAUC … UGGAAUUCUCGGGUGUCAAGG
Strand | log2 enrichment
GUCCUGUGCUACACAUCGUAUGUACCGAAUCGGUUUUUGGAAAAAAAGGUUUUUUUGGAAAGUAUUAUGUUACGCCGUUCGGAUCUGCAC | -0.257
UAACUUUAGAGGAGGAUCUGAUGGAUAUGGCAGUGGACGUGGAUUUGGGGAUGGCUAUAAUGGGUAUGGAGGAGGGCCUGGAGGUGGCAA | -0.11
UUUUGAGGAAAGGAUGAAGGAGCUCAGAGAAGAGGUAAGGGUCUCCUAUCCUUCCCCUCUCCCCCAGAUUUGAGUUUUAUGUUAUGAAUC | -0.113
CCUCAAGUCCUGUGCUACACAUCGUAUGUACCGAAUCGGGUGGGUGGGUGGGGAAAGUAUUAUGUUACGCCGUUCGGAUCUGCACUUCCA | 0.934
ACCAUGCAGGUGGGCAUCUUUGGGAAGUGGGGCAAGGGGGGGAUAGGGAGGGGGGUAACACUUUCGGAACAGGUGGUCCCAGGUCGUUUC | 0.841
GCAGGAAGUAAAAACAAAUGGAAAUGCUUCGGAUAGUGGCAGGGGUGGGGGUUGCUAAGGAAAGUGUGGGAUGGGAGUGGGUAAAGAGUU | 1.15
UGGGAGGUGAAUUUUGUUUAUUUUUUUAGCUCAUUUCCAGGGGUGGGAAUUUUUUUUUAAUAUGUGUCAUGAAUAAAGUUGUUUUUGAAA | 1.5
CCUCAAGUCCUGUGCUACACAUCGUAUGUACCGAAUCGGGGCGGGCGGGCGGGAAAGUAUUAUGUUACGCCGUUCGGAUCUGCACUUCCA | 1.06

Study 3 — technique: RNA Bind-n-Seq; molecule type: RNA; medium: in vitro; concentration: 100 nM; relative to: input RNA pool; direction: higher = stronger binding
Target: RING finger protein unkempt homolog, zinc fingers 1-6, SBP tag (UNK, Homo sapiens, UniProt Q9C0B0, residues 30-357)
Chain of UniProt Q9C0B0 (30-357, looked up): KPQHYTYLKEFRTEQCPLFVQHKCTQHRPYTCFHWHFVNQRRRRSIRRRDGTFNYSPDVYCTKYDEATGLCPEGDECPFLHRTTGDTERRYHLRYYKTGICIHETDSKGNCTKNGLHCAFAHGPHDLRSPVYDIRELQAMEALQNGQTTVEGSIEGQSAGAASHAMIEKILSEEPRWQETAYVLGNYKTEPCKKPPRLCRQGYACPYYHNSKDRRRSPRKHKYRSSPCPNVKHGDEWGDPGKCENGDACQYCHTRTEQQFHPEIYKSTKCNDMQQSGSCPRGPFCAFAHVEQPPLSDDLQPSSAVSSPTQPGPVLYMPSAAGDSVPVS
Setting: RNA with constant flanks, vertebrate orthologous sites, ends assumed
Constant ends, left off below: GGGAGUUCUACAGUCCGACGAUC … CAACAGAGGAUUGAGCAUCA
Strand | bound/input enrichment
AAAUGAGCUGCUAGGGCAGUAAGAUGGGUUCCCUUUCACCCCUCAAGGAAAAAACCCGAACGGAUUCCUUAACCAUCUAAGUAGACUACCAUAGGUUAGCUUUUCUGGGUAUUUUUGUUA | 0.289 ratio
GUGGGUUGUACCUCCUGAACUUCUAGCUUUCAAGUUGUGGCUUUUUUUUUUUCUUUUCUUUAGAAUUUUUCCCUGUUUCCCACCUUCUCUUCCCCUGUUCCCAAGGUCUGACUCAUGGAU | 3.16 ratio
AAAUUUAUUUUAUGCCCUGGACUCCCUACCGCACCGAUACGUUAAUAGAAUAUGCCUCUUUAGAAGAUUUUCAAAACAGCCGCCAGACAACAACAUACAAACUUCCAAACCGAGUAGACG | 2.96 ratio
AUCCCUCAGUGACAGUAUGCCAUCUGUAGCAGAUUCCCACUCCAGUCAUUUUUCUGAAUUUAGUUGUUCUGACCUAGAAAGCAUGAAAACUUCUUGUAGUCAUGGUUCCAAUGAUUAUCA | 0.773 ratio
AGAUUGGGACCUUGGAGCAGAAUGAGAAGUUUGCAAAAGUAAAGCAAGCUUGUAAAAUUAUACCAUAUGCAGCUGCACAGUGGUACUUACCACUAGCAACUGUAUUAAAGCAUUUAUGAA | 0.555 ratio

Study 4 — effect on: enzyme activity; mode: inhibitor; concentration: 20 µM
Target: Replicase polyprotein 1ab, polymerase (rep, Severe acute respiratory syndrome coronavirus 2, UniProt P0DTD1)
SMILES | inhibition [%]
O=C(O)c1cn(-c2ccc(F)cc2)c2cc(N3CCNCC3)c(F)cc2c1=O | 14.8
CCCN1CCC[C@@H]2Cc3nc(N)ncc3C[C@H]21 | -2.25
CC(C)(CCCCCCCCCCC(C)(C)CC(=O)O)CC(=O)O | 0.9
N#Cc1cccc(C(=O)Nc2cc(-c3ccccc3)nn2-c2ccccc2)c1 | -1.65
N[C@@]1(C(=O)O)CC[C@H]2[C@H](C(=O)O)[C@H]21 | 3.25
Fc1ccc(C(OCCN2CCN(C/C=C/c3ccccc3)CC2)c2ccc(F)cc2)cc1 | 0.2
CC(C)(C)CCN1C[C@@H]2C(CNC(=O)c3cc(Cl)cc(Cl)c3)[C@@H]2C1 (stereo partly drawn) | -1.45
CC(=O)N1CCN(CCOc2ccc(C3CCN(C4=Nn5c(nnc5C(F)(F)F)CC4)CC3)cc2)CC1 | -2.36
COc1ccc(Cl)c(Nc2nc3ccccc3nc2NS(=O)(=O)c2cccc(NC(=O)C(C)(C)N)c2)c1 | 13.7
Nc1ccc(S(=O)(=O)c2ccc(N)cc2)cc1 | -1.02
CN(C)CCCn1cc(C2=C(c3c[nH]c4ccccc34)C(=O)NC2=O)c2ccccc21 | 4.27
COc1cn(-c2ccc(-n3cccn3)cc2F)nc(-c2ccnn2-c2ccccc2)c1=O | -10.9
NC(=NCCC[C@H](N)C(=O)O)N[N+](=O)[O-] | -6.71
CNC(=C[N+](=O)[O-])NCCSCc1csc(CN(C)C)n1 | -2.05
CSc1ccc(C(=O)/C=C/c2cc(C)c(OC(C)(C)C(=O)O)c(C)c2)cc1 | -2.85
CNC(=O)c1cc2c(cn1)[nH]c1ccccc12 | -2.1
Cn1c(=O)c2c(ncn2CCOC(=O)C(C)(C)Oc2ccc(Cl)cc2)n(C)c1=O | -4.14
CC(C)/N=c1\cc2n(-c3ccc(Cl)cc3)c3ccccc3nc-2cc1Nc1ccc(Cl)cc1 | -3.6
CC(=O)Nc1ccc(O)cc1 | -16.2
Cc1cc(O)c2c(c1)C(=O)c1cccc(O)c1C2=O | -2.93
CCCc1ncc(C[n+]2ccccc2C)c(N)n1 | -2.27
COc1cc2c(cc1OC)-c1cc3ccc(OC)c(OC)c3c[n+]1CC2 | -6.2
N=C(N)NCCC[C@H](N)C(=O)O | -4.35
CC[C@H](C)[C@H](NC(=O)[C@H](Cc1ccc(O)cc1)NC(=O)[C@@H](NC(=O)[C@H](CCCNC(=N)N)NC(=O)[C@@H](N)CC(=O)O)C(C)C)C(=O)N[C@@H](Cc1c[nH]cn1)C(=O)N1CCC[C@H]1C(=O)O | -13.8
NC(=O)OCC(COC(N)=O)c1ccccc1 | -5.21

Study 5 — technique: competition protein-binding microarray; molecule type: double-stranded DNA, one strand shown; medium: in vitro; concentration: 2 µM; together with: Cbf1 competitor, 0.05 µM; direction: higher = stronger binding; constant ends, left off below: … GTCTTGATTCGCTTGACGCTGCTG
Target: Phosphate system positive regulatory protein PHO4, full length, GST-tagged (PHO4, Saccharomyces cerevisiae, UniProt P07270, residues 1-312)
Setting: whole 60-bp probe, lowest competitor level
Construct (chain): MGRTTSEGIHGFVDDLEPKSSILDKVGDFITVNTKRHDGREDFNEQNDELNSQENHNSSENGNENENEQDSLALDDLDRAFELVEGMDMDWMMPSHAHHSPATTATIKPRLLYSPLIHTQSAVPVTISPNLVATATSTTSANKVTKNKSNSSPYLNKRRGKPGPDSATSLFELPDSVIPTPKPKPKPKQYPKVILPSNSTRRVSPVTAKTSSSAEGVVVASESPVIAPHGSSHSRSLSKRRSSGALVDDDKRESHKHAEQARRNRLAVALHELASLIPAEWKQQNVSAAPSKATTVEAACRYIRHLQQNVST
Strand | fluorescence intensity
GGTGTGCGGTTGCGGGGCGTGGGTATGCGCGCCGTT | 9550 a.u.
CTTCCGATAACTCCGCACGGCAAGGAGTAGTGGCGA | 5130 a.u.
GAGACGGACGAGAGTGACGTGCTTTGGGTTGAGACG | 5450 a.u.
GAGCAAGTTTCTTCACGTGTGACGCTGGCACATTAG | 12900 a.u.
TGGAACAGCAATGCCACCGTGATGGTCCTTGACCAG | 5010 a.u.
CGGGGTTAAGTTTGAGCGGTGGGTGGCTTGCAGCAG | 4070 a.u.
GTCTTGTCTCATTGTTAAGTGGGTGTCCCCACTTCA | 4840 a.u.
TGCGCAACAACTTGGCTAGTGGGTGTATGTCTAGAA | 4550 a.u.

Study 6 — technique: protein-binding microarray; molecule type: double-stranded DNA, one strand shown; medium: in vitro; concentration: not given; direction: higher = stronger binding
Target: TATA-box-binding protein 1 (TBP1, Arabidopsis thaliana, UniProt P28147, residues 1-200, full length assumed)
Setting: k-mer, scored over probes, only values ≥0.25
Target sequence (chain): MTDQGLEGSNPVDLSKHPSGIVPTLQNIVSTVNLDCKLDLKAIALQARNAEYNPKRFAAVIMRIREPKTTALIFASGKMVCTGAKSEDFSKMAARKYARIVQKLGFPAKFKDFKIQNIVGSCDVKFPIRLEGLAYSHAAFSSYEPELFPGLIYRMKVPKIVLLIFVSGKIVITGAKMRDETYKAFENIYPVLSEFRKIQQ
Strand | E-score
ACTAATA | 0.326
ACAATAT | 0.337
CTAATTA | 0.282
ACACTTA | 0.284

Study 7 — effect on: enzyme activity; mode: inhibitor; concentration: 20 µM; setting: primary screen
Target: Replicase polyprotein 1ab, main protease (rep, Severe acute respiratory syndrome coronavirus 2, UniProt P0DTD1)
SMILES | inhibition
CC(C)C[C@@H](C=O)NC(=O)[C@H](CC(C)C)NC(=O)[C@H](CC(C)C)NC(=O)OCc1ccccc1 | 68.5% and 91.7%
NC[C@@H]1O[C@H](C23CC4CC(CC(C4)C2)C3)Cc2c1ccc(O)c2O | 97.3%
CC[C@@H](c1ccc(F)c(F)c1)n1c(C(=O)OC)c(-c2ccno2)[nH]c1=S | 43.7%

Some of these lines once more (study 4):
SMILES | inhibition [%]
O=C(O)c1cn(-c2ccc(F)cc2)c2cc(N3CCNCC3)c(F)cc2c1=O | 14.8
CCCN1CCC[C@@H]2Cc3nc(N)ncc3C[C@H]21 | -2.25
CC(C)(CCCCCCCCCCC(C)(C)CC(=O)O)CC(=O)O | 0.9
N#Cc1cccc(C(=O)Nc2cc(-c3ccccc3)nn2-c2ccccc2)c1 | -1.65
N[C@@]1(C(=O)O)CC[C@H]2[C@H](C(=O)O)[C@H]21 | 3.25
Fc1ccc(C(OCCN2CCN(C/C=C/c3ccccc3)CC2)c2ccc(F)cc2)cc1 | 0.2
CC(C)(C)CCN1C[C@@H]2C(CNC(=O)c3cc(Cl)cc(Cl)c3)[C@@H]2C1 (stereo partly drawn) | -1.45
CC(=O)N1CCN(CCOc2ccc(C3CCN(C4=Nn5c(nnc5C(F)(F)F)CC4)CC3)cc2)CC1 | -2.36
